Results pooled from the literature.
Compare with care: the assays were run in different laboratories. ± marks the error that the study gave.

SMILES	assay	system	conditions	AUC(0-inf)
NC(=S)NN=Cc1ncccc1N	–	human, plasma	intravenous, 50 mg, geometric mean	805 ng·h/mL
C[C@H](O)c1cc(C(=O)N[C@@H](C)Cn2ccc(-c3ccc(C#N)c(Cl)c3)n2)n[nH]1	–	healthy male human, plasma	intravenous infusion, 100 µg 14C-labelled, 15 min infusion, microtracer, geometric mean	10300 h·pg eq/mL
Nc1ccn([C@@H]2O[C@H](CO)[C@@H](O)C2(F)F)c(=O)n1	HPLC-UV	human, plasma	intravenous, 800 mg/m^2, mean, before paricalcitol	17500 ng·h/mL
N[C@@H]1c2cccnc2[C@H](OC(=O)N2CCC(n3c(=O)[nH]c4ncccc43)CC2)CC[C@H]1c1cccc(F)c1F	–	human, plasma	oral, dose not given, single dose, geometric LS mean, with: fluconazole	9270 ng·h/mL
Cn1cncc1[C@@](N)(c1ccc(Cl)cc1)c1ccc2c(c1)c(-c1cccc(Cl)c1)cc(=O)n2C	–	healthy human subjects, plasma	oral, 50 mg, fed (high-fat meal)	523 ng·h/mL
CN(C)C(=O)c1cc2cnc(Nc3ccc(N4CCNCC4)cn3)nc2n1C1CCCC1	–	human, mild renal impairment, plasma	oral, 400 mg, geometric mean	6650 ng·h/mL
N[C@]1(C(=O)O)[C@H]2[C@@H](C[C@@H]1F)[C@@H]2C(=O)O	–	human, plasma	oral, 20 mg single dose, fasted	828 ng·h/mL
CC1=C(c2cccc(O)c2)[C@H](c2ccc(OCCN3CC(CF)C3)cc2)Oc2ccc(O)cc21	–	human, plasma	oral, 600 mg single dose, geometric mean	1220 ng·h/mL
C=CC(=O)NC1CCN(c2ncc3ncnc(Nc4ccc(Oc5ccc6c(c5)ncn6C)c(C)c4)c3n2)CC1	–	human, male, plasma	oral, 30 mg single dose, fed, geometric mean	4.31 µM·h
Cc1cc(C)c(CNC(=O)c2cc(Cl)c3c(c2C)O[C@@](C)([C@H]2CC[C@H](N(C)C)CC2)O3)c(=O)[nH]1	–	healthy male human, plasma	oral, 25 mg, alone, before itraconazole	804 ng·h/mL
C[C@@H](Oc1ccc(S(C)(=O)=O)cc1C(=O)N1C[C@@H]2C[C@]2(c2cc(C(F)(F)F)on2)C1)C(F)(F)F	–	healthy young humans, plasma	oral, 75 mg single dose	18.4 µM·h
CN(CC#N)C(=O)C[C@H](Nc1nc2ccccc2[nH]1)c1cccc(C(F)(F)F)c1	–	human	intravenous infusion, 4 mg/kg, 1 mg/mL formulation	20000 ± 7790 ng·h/mL
Cn1cncc1[C@@](N)(c1ccc(Cl)cc1)c1ccc2c(c1)c(-c1cccc(Cl)c1)cc(=O)n2C	–	human, without dose-limiting toxicity, plasma	oral, dose not given, range	2800 to 36100 ng·h/mL
C[C@H]1CN(C(=O)CC#N)[C@]12CCN(c1ncnc3[nH]ccc13)C2	–	healthy human, plasma	oral, 3 mg single, median	61.5 ng·h/mL
C=CC(=O)N(C)CCOc1c(N)ncnc1-c1cc(F)cc(NC(=O)c2ccc(C3CC3)cc2F)c1C	–	human, whole blood	oral, 60 mg, single ascending dose	245 ng·h/mL
C#C[C@]1(CO)O[C@@H](n2cnc3c(N)nc(F)nc32)C[C@@H]1O	–	human, fed, plasma	oral, 30 mg, geometric mean	4.21 µM·h
Cn1cc(-c2ccc(S(=O)(=O)[C@@H]3C[C@@H](C(=O)NC4(C#N)CC4)N(C(=O)C4(C(F)(F)F)CC4)C3)c(C(F)(F)F)c2)cn1	noncompartmental	human, both sexes, plasma	oral, 100 mg once daily, day 1, with food, single dose	12500 ng·h/mL

Some of these lines once more:
SMILES	assay	system	conditions	AUC(0-inf)
CC1=C(c2cccc(O)c2)[C@H](c2ccc(OCCN3CC(CF)C3)cc2)Oc2ccc(O)cc21	–	human, plasma	oral, 600 mg single dose, geometric mean	1220 ng·h/mL
